# Published values pooled from the literature.
# Protocols differ between the studies behind these lines.
# EGFR L861Q: Epidermal growth factor receptor (EGFR, Homo sapiens, UniProt P00533, L861Q)
# EGFR del752-759: Epidermal growth factor receptor (EGFR, Homo sapiens, UniProt P00533, del752-759)
Compound,target,test,setting,scale,remaining binding [%]
Nc1ncc2c(n1)-c1c([nH]c3ccc(C4=CCOCC4)cc13)CCC2,"Epidermal growth factor receptor (EGFR, Homo sapiens, UniProt P00533, T790M)","binding, competition with immobilised ligand",1 µM,,84
CNC1C[S+]2CC[S+]3CC[S+](C1)[Ru-4]321([N]=C=S)[n]2c3ccc(OC)cc3c3c4c(c5cc(F)c[n+]1c5c32)C(=O)NC4=O (stereo not shown),"Epidermal growth factor receptor (EGFR, Homo sapiens, UniProt P00533, G719S)",KinomeScan,0.1 µM,baseline: untreated,100
C=CC(=O)N1CCCC(n2c(=O)c3ncccc3n(Cc3ccc(Oc4ccccc4)cc3)c2=O)C1 (stereo not shown),EGFR L861Q,"cell-free assay, competition with immobilised ligand",1 µM,,91
CCN1CCN(Cc2ccc(C(=O)Nc3ccc(C)c(NCc4cnc5[nH]ccc5c4OC)c3)cc2C(F)(F)F)CC1,"Epidermal growth factor receptor (EGFR, Homo sapiens, UniProt P00533, L858R/T790M)","binding, competition with immobilised ligand",1 µM,,72
CC(C)=CC1OC(C)(C)C2C=C3C(=O)C(Cl)=CC(O)C3C3C(O)C4OC4C(=O)C132 (stereo not shown),EGFR L861Q,"cell-free assay, competition with immobilised ligand",10 µM,,96
COc1c(Cl)cccc1Nc1c(-c2ccncc2C#C[C@@]2(C)CCCN2C(=O)/C=C/CN(C)C)[nH]c2c1C(=O)NCC2,EGFR del752-759,"cell-free assay, competition with immobilised ligand",3 µM,,0
Cc1ccc(-c2c(/C=C(\C#N)C(=O)NC(C)C)n(CCCO)c3ncnc(N)c23)cc1,"Epidermal growth factor receptor (EGFR, Homo sapiens, UniProt P00533, L858R)","cell-free assay, competition with immobilised ligand",1 µM,,66
CCN1CCN(Cc2ccc(NC(=O)c3ccc(C)c(NC(=O)c4cncc(-c5cccs5)c4)c3)cc2C(F)(F)F)CC1,"Epidermal growth factor receptor (EGFR, Homo sapiens, UniProt P00533, G719C)","binding, competition with immobilised ligand",1 µM,,0.1
CNC(=O)C1CCN(c2cc(C)c(F)cc2NC(=O)c2ccc(-c3cc(O)ccc3C)c(C)c2)CC1,EGFR del752-759,"binding, competition with immobilised ligand",1 µM,,63
C=CC(=O)N1CCc2ccc(-n3c(=O)ccc4cnc5ccc(-c6cnn(C)c6)cc5c43)cc21,EGFR del752-759,KINOMEscan,1 µM,baseline: DMSO control,74
